Measured values from different studies.
Parts stem from different laboratories: compare values within a part only. Substitutions count along the parent as printed.

Block 1 — method: protein-binding microarray; molecule type: double-stranded DNA, one strand shown; medium: in vitro; tested at: not given; reading: higher = stronger binding
Target: TATA-box-binding protein 1 (TBP1, Arabidopsis thaliana, UniProt P28147, residues 1-200, full length assumed)
Setting: k-mer, scored over probes, only values ≥0.25
Residues (chain): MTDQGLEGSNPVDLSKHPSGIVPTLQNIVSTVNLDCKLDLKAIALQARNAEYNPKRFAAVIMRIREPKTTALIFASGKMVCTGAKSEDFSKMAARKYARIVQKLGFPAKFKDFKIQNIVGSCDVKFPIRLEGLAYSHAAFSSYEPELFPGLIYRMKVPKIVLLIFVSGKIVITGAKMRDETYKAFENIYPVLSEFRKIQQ
Sequence | E-score
GCATTAA | 0.299
ATTATAG | 0.361
ATAATAC | 0.35
ATATTTC | 0.363
GATATAC | 0.359
AATATGA | 0.312
AATGATA | 0.3
CCTTATA | 0.437
ATATGAC | 0.325
ACATTTA | 0.385

Block 2 — method: RNA Bind-n-Seq; molecule type: RNA; medium: in vitro; tested at: 365 nM; baseline: no-protein control; reading: higher = stronger binding
Target: RNA binding protein fox-1 homolog 2, RRM domain, GST-SBP tag (RBFOX2, Homo sapiens, UniProt O43251-10, residues 100-194)
Setting: natural RNA segment, single round, ends assumed
All sequences stand within: GGGAGUUCUACAGUCCGACGAUC … UGGAAUUCUCGGGUGCCAA
Residues (chain): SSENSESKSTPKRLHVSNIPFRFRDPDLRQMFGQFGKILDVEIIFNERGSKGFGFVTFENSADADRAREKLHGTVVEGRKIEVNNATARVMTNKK
Sequence | RBNS enrichment (R)
AAUUUAGUUAGACUAAACAUAAUUCUUUAAGUUCAACCUAAAGGGCUGAGAUCAAUAAAUUUAACACUAGACGAAGUAGACUUCCUGUCUUUUUGAGAAGAGAUGAGGUA | 0.582
GAAAAUUCUCAACAAUAAUGUUUGCCUUCUAGUUUAAGACAUGGUGUAUUUUAGAAAUUACCUGAAGUGAAGCUAUCACGAAGUGAGUGUAUCACCUGGUGAGCGAGUGA | 0.375
ACUUUUUGUGGAAUUCUCUGAUAAAGGAAGCUUUUAGGAUGGUAUCUAUCAGGCCACCAGCAGGAAUUGAAAAUGUUUUCACAAAAAUCCUUUUCCUUAGAAAUAAAAGC | 0.652
UGUCAAACACAGCCAUUAUAAUUAUGUAAAUUUGCAAAUUAUGUUAAAAACAAGGACAAUAAAUAUUCAAAAUGCAUCCCUAAUUACUACAUUUGACCACGAUCUGUGCU | 0.426
UGAAUGACCCCUGGAGGCCGAGGGGGCAGGCUUCGGGCGUGAACUGAACUCCAGACCCCUCUUUGUGUUGGGCAGUGUCAUCUUGCUUACAAACUGUAAGACACAUUUUU | 1.31
CAUAUAAAUACUCAACCACAUUUCAGCUUAAGCUUCUAAUUUCUCAAGAAGUUGAAACAGUUAGUUAUGUAGUUGAAGCAAUUUGUGUGCAAAGCCUACAUCUAAACACU | 0.282
CUUGACUUCAGGCAGCAGAUUGUCUAGAAGCCUAAGGACAGCAAUUUCUCUGACAAGACAAAGUAGAUAUUUUAUACCAGGGGUUGGCAAACUACUGCCCACGGGCCGAA | 0.363
AAUAUGUAGCUAACAAAUUGACCUAGUUUCUGUAUUUUUUUGUUUUUGUACUAAAGUUUAUAGGUCUGUGCCAGCUAGAGAGAAGUUGCUGUCAUUACCAGUUGUGGUCC | 0.799

Block 3 — target: CCNA2, cyclin fold, Cln2 fusion (human); method: yeast growth competition, sequencing; medium: yeast; setting: strong parent motif; baseline: not given; reading: higher = stronger binding
Parent: GMNC docking peptide (human); KNAKRNLSSEFAN; partner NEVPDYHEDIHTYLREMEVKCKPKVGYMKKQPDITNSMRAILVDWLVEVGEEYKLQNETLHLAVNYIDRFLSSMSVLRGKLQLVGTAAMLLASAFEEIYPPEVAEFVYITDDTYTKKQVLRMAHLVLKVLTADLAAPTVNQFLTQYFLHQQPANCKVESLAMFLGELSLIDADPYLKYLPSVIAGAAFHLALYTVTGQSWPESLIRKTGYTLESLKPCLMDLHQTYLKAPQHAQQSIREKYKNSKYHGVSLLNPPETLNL
Change | normalised enrichment score
KNTKRNLSSEFAN [A3T] | 4.46
KNAKKNLSSEFAN [R5K] | 1.98
KNAKRNLSMEFAN [S9M] | 5.5
KNAKRNLSPEFAN [S9P] | 4.76
KNAKRNLSSHFAN [E10H] | 1.65
KNAKRNLISEFAN [S8I] | 5.63
KEAKRNLSSEFAN [N2E] | 3.81
KNAKRNLSSEDAN [F11D] | 0.819
KNIKRNLSSEFAN [A3I] | 4.93

Mixed results
Molecule | target | test | system | setting | scale | endpoint | result
PhoQ, residues 284 288 289 292 302 303 HSYLQF | PhoP, residues 12 14 15 18 19 SEGLL (Escherichia coli, UniProt P23836) | Sort-seq, item: YFP reporter | E. coli | PhoQ-PhoP variant library, together with: 10 µM Mg2+ | baseline: high Mg2+ state, higher = stronger signaling | fold induction | 12

Some of these lines once more (block 2):
Sequence | RBNS enrichment (R)
CAUAUAAAUACUCAACCACAUUUCAGCUUAAGCUUCUAAUUUCUCAAGAAGUUGAAACAGUUAGUUAUGUAGUUGAAGCAAUUUGUGUGCAAAGCCUACAUCUAAACACU | 0.282
AAUAUGUAGCUAACAAAUUGACCUAGUUUCUGUAUUUUUUUGUUUUUGUACUAAAGUUUAUAGGUCUGUGCCAGCUAGAGAGAAGUUGCUGUCAUUACCAGUUGUGGUCC | 0.799
ACUUUUUGUGGAAUUCUCUGAUAAAGGAAGCUUUUAGGAUGGUAUCUAUCAGGCCACCAGCAGGAAUUGAAAAUGUUUUCACAAAAAUCCUUUUCCUUAGAAAUAAAAGC | 0.652
AAUUUAGUUAGACUAAACAUAAUUCUUUAAGUUCAACCUAAAGGGCUGAGAUCAAUAAAUUUAACACUAGACGAAGUAGACUUCCUGUCUUUUUGAGAAGAGAUGAGGUA | 0.582
